# Measured values gathered from unrelated publications.
# Each line is one published result; not all experiments were run side by side. ± marks the error that the study gave.
# HSP90AA1: Heat shock protein HSP 90-alpha (HSP90AA1, Homo sapiens, UniProt P07900)
# HSP90AA1 C-terminal domain: Heat shock protein HSP 90-alpha, C-terminal domain (HSP90AA1, Homo sapiens, UniProt P07900)
SMILES,target,effect on,method,notes,endpoint,result
COC(=O)c1c(O)cc(O)c(Cl)c1CCc1ccccc1Cc1ccccc1OC,HSP90AA1,ligand displacement,FP,,Kd,> 100 µM
CC[C@H](C)[C@H](NC(=O)[C@@H]1CCCN1C(=O)[C@H](CC(C)C)NC(C)=O)C(=O)N[C@@H](CO)C(=O)N[C@H](C(=O)NCC(=O)NCC(=O)N[C@@H](Cc1ccccc1)C(=O)N[C@@H](CCC(N)=O)C(=O)N[C@@H](CCSC)C(=O)N[C@@H](C)C(=O)N[C@@H](CC(C)C)C(=O)N[C@H](C(=O)N1CCC[C@H]1C(=O)N[C@H](C(=O)N[C@H](C(=O)O)C(C)C)C(C)C)[C@@H](C)O)[C@@H](C)O,HSP90AA1,binding,MST,,Kd,~90 µM
O=C1c2ccc(O)cc2-c2c(-c3ccc(O)cc3)oc3cc(O)cc1c23,HSP90AA1,binding,FP,,Kd,0.31 µM
Cc1cc(C)c(S(=O)(=O)N(CC(=O)O)c2ccc(Nc3ccnc(N4CCCC4)n3)cc2)c(C)c1,"Heat shock protein HSP 90-alpha (HSP90AA1, Homo sapiens, UniProt P07900, E47A)",binding,biolayer interferometry,mutant E47A,Kd,> 100 µM
CCC(C)n1c(C(=O)Nc2cnc(C(=O)NC)n(CC(C)C)c2=O)ncc(NC(=O)c2ncc(NC(=O)c3ccccc3)c(=O)[nH]2)c1=O (stereo not shown),HSP90AA1 C-terminal domain,binding,microscale thermophoresis,C-terminal domain,Kd,249 µM
CCNC(=O)c1noc(-c2cc(C(C)C)c(O)cc2O)c1NC(=O)CCN1CCOCC1,HSP90AA1,ligand displacement,FP,,IC50,0.2 µM
CC(C)c1cc(-n2nnc(C(=O)Nc3c(F)ccc(NS(=O)(=O)N(C)C)c3F)c2-c2ccncc2)c(O)cc1O,HSP90AA1,ligand displacement,FP,,IC50,0.008 µM
COC(=O)c1c(O)cc(O)c(Cl)c1CCc1ccccc1Cc1ccccc1,HSP90AA1,ligand displacement,FP,,Kd,20.7 µM
CCC(C)n1c(C(=O)Nc2cnc(C(=O)NC)n(CC(C)C)c2=O)ncc(NC(=O)c2ncc(NC(=O)c3ccccc3)c(=O)n2CCc2ccc(OCc3ccccc3)cc2)c1=O (stereo not shown),HSP90AA1 C-terminal domain,binding,microscale thermophoresis,C-terminal domain,Kd,11.7 ± 1 µM
C=CCNC1=C2C[C@@H](C)C[C@H](OC)[C@H](O)[C@@H](C)[C@@H]3O[C@@]3(C)[C@H](OC(N)=O)[C@@H](OC)/C=C\C=C(/C)C(=O)NC(=CC1=O)C2=O,HSP90AA1,ligand displacement,FP,,Kd,> 10 µM

# Repeated from above:
SMILES,target,effect on,method,notes,endpoint,result
O=C1c2ccc(O)cc2-c2c(-c3ccc(O)cc3)oc3cc(O)cc1c23,HSP90AA1,binding,FP,,Kd,0.31 µM
